Assay results gathered from unrelated publications.
Compare with care: the assays were run in different laboratories. Several values in a cell are separate wells, animals, samples, runs or records. Numbers after ± are the reported error.
B1: desmocollin-1; sequence looked up; chain RWAPIPASLMENSLGPFPQHVQQIQSDAAQNYTIFYSISGPGVDKEPFNLFYIEKDTGDIFCTRSIDREKYEQFALYGYATTADGYAPEYPLPLIIKIEDDNDNAPYFEHRVTIFTVPENCRSGTSVGKVTATDLDEPDTLHTRLKYKILQQIPDHPKHFSIHPDTGVITTTTPFLDREKCDTYQLIMEVRDMGGQPFGLFNTGTITISLEDENDNPPSFTETSYVTEVEENRIDVEILRMKVQDQDLPNTPHSKAVYKILQGNENGNFIISTDPNTNEGVLCVVKPLNYEVNRQVILQVGVINEAQFSKAASSQTPTMCTTTVTVKIIDSDEGPECHPPVKVIQSQDGFPAGQELLGYKALDPEISSGEGLRYQKLGDEDNWFEINQHTGDLRTLKVLDRESKFVKNNQYNISVVAVDAVGRSCTGTLVVHLDDYNDHAPQIDKEVTICQNNEDFAVLKPVDPDGPENGPPFQFFLDNSASKNWNIEEKDGKTAILRQRQNLDYNYYSVPIQIKDRHGLVATHMLTVRVCDCSTPSECRMKDKSTRDVRPNVILGRWAILAMVLGSVLLLCILFTCFCVTAKRTVKKCFPEDIAQQNLIVSNTEGPGEEVTEANIRLPMQTSNICDTSMSVGTVGGQGIKTQQSFEMVKGGYTLDSNKGGGHQTLESVKGVGQGDTGRYAYTDWQSFTQPRLGEKVYLCGQDEEHKHCEDYVCSYNYEGKGSLAGSVGCCSDRQEEEGLEFLDHLEPKFRTLAKTCIKK
B2: DDX21; sequence looked up; chain MPGKLRSDAGLESDTAMKKGETLRKQTEEKEKKEKPKSDKTEEIAEEEETVFPKAKQVKKKAEPSEVDMNSPKSKKAKKKEEPSQNDISPKTKSLRKKKEPIEKKVVSSKTKKVTKNEEPSEEEIDAPKPKKMKKEKEMNGETREKSPKLKNGFPHPEPDCNPSEAASEESNSEIEQEIPVEQKEGAFSNFPISEETIKLLKGRGVTFLFPIQAKTFHHVYSGKDLIAQARTGTGKTFSFAIPLIEKLHGELQDRKRGRAPQVLVLAPTRELANQVSKDFSDITKKLSVACFYGGTPYGGQFERMRNGIDILVGTPGRIKDHIQNGKLDLTKLKHVVLDEVDQMLDMGFADQVEEILSVAYKKDSEDNPQTLLFSATCPHWVFNVAKKYMKSTYEQVDLIGKKTQKTAITVEHLAIKCHWTQRAAVIGDVIRVYSGHQGRTIIFCETKKEAQELSQNSAIKQDAQSLHGDIPQKQREITLKGFRNGSFGVLVATNVAARGLDIPEVDLVIQSSPPKDVESYIHRSGRTGRAGRTGVCICFYQHKEEYQLVQVEQKAGIKFKRIGVPSATEIIKASSKDAIRLLDSVPPTAISHFKQSAEKLIEEKGAVEALAAALAHISGATSVDQRSLINSNVGFVTMILQCSIEMPNISYAWKELKEQLGEEIDSKVKGMVFLKGKLGVCFDVPTASVTEIQEKWHDSRRWQLSVATEQPELEGPREGYGGFRGQREGSRGFRGQRDGNRRFRGQREGSRGPRGQRSGGGNKSNRSQNKGQKRSFSKAFGQ
B3: AKAP8; sequence looked up; chain MDQGYGGYGAWSAGPANTQGAYGTGVASWQGYENYNYYGAQNTSVTTGATYSYGPASWEAAKANDGGLAAGAPAMHMASYGPEPCTDNSDSLIAKINQRLDMMSKEGGRGGSGGGGEGIQDRESSFRFQPFESYDSRPCLPEHNPYRPSYSYDYEFDLGSDRNGSFGGQYSECRDPARERGSLDGFMRGRGQGRFQDRSNPGTFMRSDPFVPPAASSEPLSTPWNELNYVGGRGLGGPSPSRPPPSLFSQSMAPDYGVMGMQGAGGYDSTMPYGCGRSQPRMRDRDRPKRRGFDRFGPDGTGRKRKQFQLYEEPDTKLARVDSEGDFSENDDAAGDFRSGDEEFKGEDELCDSGRQRGEKEDEDEDVKKRREKQRRRDRTRDRAADRIQFACSVCKFRSFDDEEIQKHLQSKFHKETLRFISTKLPDKTVEFLQEYIVNRNKKIEKRRQELMEKETAKPKPDPFKGIGQEHFFKKIEAAHCLACDMLIPAQPQLLQRHLHSVDHNHNRRLAAEQFKKTSLHVAKSVLNNRHIVKMLEKYLKGEDPFTSETVDPEMEGDDNLGGEDKKETPEEVAADVLAEVITAAVRAVDGEGAPAPESSGEPAEDEGPTDTAEAGSDPQAEQLLEEQVPCGTAHEKGVPKARSEAAEAGNGAETMAAEAESAQTRVAPAPAAADAEVEQTDAESKDAVPTE
B4: ARGLU1; sequence looked up; chain MGRSRSRSSSRSKHTKSSKHNKKRSRSRSRSRDKERVRKRSKSRESKRNRRRESRSRSRSTNTAVSRRERDRERASSPPDRIDIFGRTVSKRSSLDEKQKREEEEKKAEFERQRKIRQQEIEEKLIEEETARRVEELVAKRVEEELEKRKDEIEREVLRRVEEAKRIMEKQLLEELERQRQAELAAQKAREEEERAKREELERILEENNRKIAEAQAKLAEEQLRIVEEQRKIHEERMKLEQERQRQQKEEQKIILGKGKSRPKLSFSLKTQD
B5: Aurora kinase A; sequence looked up; chain MDRSKENCISGPVKATAPVGGPKRVLVTQQFPCQNPLPVNSGQAQRVLCPSNSSQRIPLQAQKLVSSHKPVQNQKQKQLQATSVPHPVSRPLNNTQKSKQPLPSAPENNPEEELASKQKNEESKKRQWALEDFEIGRPLGKGKFGNVYLAREKQSKFILALKVLFKAQLEKAGVEHQLRREVEIQSHLRHPNILRLYGYFHDATRVYLILEYAPLGTVYRELQKLSKFDEQRTATYITELANALSYCHSKRVIHRDIKPENLLLGSAGELKIADFGWSVHAPSSRRTTLCGTLDYLPPEMIEGRMHDEKVDLWSLGVLCYEFLVGKPPFEANTYQETYKRISRVEFTFPDFVTEGARDLISRLLKHNPSQRPMLREVLEHPWITANSSKPSNCQNKESASKQS

`QLYNKPLCDV` has a specific lysis of 0.3% (ASPC1 (HLA-A2− HPV−); 111In release; peptide; concentration not given, 16 h, E:T 25:1, IVS 5, added: peptide-generated T-cell line).
For `cisplatin`, the IC50 was 7 ± 1 µM (MRC-5; cell viability).
`hexaarginine` gave a koff of 1430 ± 140 s⁻¹ (PorA peptide pore; peptide binding, planar bilayer single-channel recording; 0.5 µM, pH 7.4, +10 mV, trans side, 150 mM KCl).
`B1 (desmocollin-1)` — result for “log2 fold change”: 0.648 (peptide binding, SILAC pull-down; concentration not given; baseline: non-acetylated over acetylated NIT1 peptide).
For `VPGFQALSE`, the IC50 was > 20 µM (Mamu-B*08301 MHC class I; peptide binding; peptide, Chinese rhesus macaque).
For `insulin human`, the fold change was 1.2 (measured: CAMK2A mRNA; uninfected mouse, brain; i.p., dose not given; baseline: PBS).
The IC50 of `(−)-antroquinonol A` is reported as 14.5 ± 1.1 µM (A549; cytotoxicity, MTS; 72 h).
For `aspterric acid`, the inhibition was 99.6% (hypocotyl length; Arabidopsis thaliana Col-0 seeds; 100 µg/mL, 7 days, dark).
`colistin` — result for “radial growth ratio”: 0.875 and 0.897 and 0.947 (Aspergillus fumigatus; pkcA G579R, solid minimal medium; 50 µM, 4 days, 37 °C; baseline: untreated).
Under “antigen-specific CD4 T cells”, `PKYVKQNTLKLAT` is recorded as 1.58% (stimulated healthy donor PBMCs; multimer staining, measured: DRB1*01:01 tetramer; peptide; concentration not given, undiluted; baseline: CD4 T cells).
`B2 (DDX21)` — result for “log2 fold change”: -0.283 (peptide binding, SILAC pull-down; concentration not given; baseline: non-acetylated over acetylated NIT1 peptide).
`Polymyxin B` has an MIC of 2 µM (Escherichia coli; broth microdilution, MH medium; carbapenem-resistant NCCP 16044; 16 h, 37 °C).
For `B3 (AKAP8)`, “log2 fold change” read -0.239 (peptide binding, SILAC pull-down; concentration not given; baseline: non-acetylated over acetylated NIT1 peptide).
For `GWTLNSAGYLLGPRRIDHLLMIKEMPIARGREEAPGA / YAVDNHRSFNDKHGFT-NH2 (C-amide)`, the colon length was 6.8 cm and 6 cm and 6.7 cm and 5.8 cm and 6.5 cm (Gnaq flox control mice, DSS colitis; ip, 3 µM, 2% DSS).
With `FAAPQFSLW` the IC50 was > 20 µM (Mamu-A1*02601 MHC class I; peptide binding; peptide, Chinese rhesus macaque).
`pertussis toxin` gave a phospho-PKC level of 13.5 MFI and 15.7 MFI and 23.5 MFI (immunostaining, measured: p-PKC; humanized UT (+/h+) mice, SAH model, Macrophages, F4/80+, peri-MCA; dose not given).
Under “log2 fold change”, `ANKRD17` is recorded as -0.207 (peptide binding, SILAC pull-down; concentration not given; baseline: non-acetylated over acetylated NIT1 peptide).
With `QQYNKPLCDL` the specific lysis was 38.1% (Ca-Ski (HLA-A2+ HPV+); 111In release; peptide; concentration not given, 16 h, E:T 25:1 IVS 5, added: peptide-generated T-cell line).
With `EFTEDELPSDSCVFGGQKLTL` the IκBα phosphorylation was 66% and 37% and 62% (IKK from HEK-293T cells; Western blot; peptide; 500 µM, 30 min, 30 °C, added: 6xHis-IκBα wt 1 µM; baseline: no-peptide control).
`NSGEETIGE` has an IC50 of > 20 µM (Mamu-B*08301 MHC class I; peptide binding; peptide, Chinese rhesus macaque).
`mitragynine` has a Vmax of 0.087 nmol/min/mg protein (substrate; human liver S9; 10 min, 1).
`B4 (ARGLU1)` — result for “log2 fold change”: -0.995 (peptide binding, SILAC pull-down; concentration not given; baseline: non-acetylated over acetylated NIT1 peptide).
For `nonaarginine`, the koff was 2700 ± 300 s⁻¹ (PorA peptide pore; peptide binding, planar bilayer single-channel recording; 0.5 µM, pH 7.4, +35 mV, trans side, 150 mM KCl).
Under “log2 fold change”, `DnaJ homolog DNAJB6` is recorded as -0.337 (peptide binding, SILAC pull-down; concentration not given; baseline: non-acetylated over acetylated NIT1 peptide).
`GWTLNSAGYLLGPHAVDNHRSFNDKHGFT-NH2 (C-amide)` gave a colon length of 5.2 cm and 5.4 cm and 5 cm and 4.6 cm and 4.8 cm (peptide, mouse, DSS-induced colitis; ip, 0.75 µM).
With `RTLEDLLMGT` the specific lysis was 6.4% (HN-30 (HLA-A2− HPV+); 111In release; peptide; concentration not given, 16 h, E:T 25:1 IVS 5, added: peptide-generated T-cell line).
`PSETPQAEVGPTGCPHR (cystathionine beta-synthase)` — result for “log2 fold change”: -0.101 (peptide binding, SILAC pull-down; concentration not given; baseline: non-acetylated over acetylated NIT1 peptide).
The IC50 of `RPVFSSPPS` is reported as > 20 µM (Mamu-B*08301 MHC class I; peptide binding; peptide, Chinese rhesus macaque).
The viability of `lead` is reported as 0.6 (non-cancerous; CCK-8; 1 µM, 24 h, unit not given; baseline: untreated control).
Under “log2 fold change”, `B5 (Aurora kinase A)` is recorded as 0.448 (peptide binding, SILAC pull-down; concentration not given; baseline: non-acetylated over acetylated NIT1 peptide).

Excerpt of the above:
The IC50 of `RPVFSSPPS` is reported as > 20 µM (Mamu-B*08301 MHC class I; peptide binding; peptide, Chinese rhesus macaque).
`NSGEETIGE` has an IC50 of > 20 µM (Mamu-B*08301 MHC class I; peptide binding; peptide, Chinese rhesus macaque).
